{"data": "Measurements gathered from unrelated publications", "note": "Each numbered part is a random draw from the data of one study; scales do not carry over between parts."}
{"data": "Sample 1", "target": "Sal-like protein 4, full length isoform B (SALL4, Homo sapiens, UniProt Q9UJQ4-2, residues 1-616)", "method": "universal PBM", "form": "double-stranded DNA, one strand shown", "matrix": "in vitro", "concentration": "not given", "notes": "8-mer, flanks averaged, mean of replicates", "direction": "higher = stronger binding"}
{"Oligonucleotide": "ATGACCGC", "E-score": -0.242}
{"Oligonucleotide": "CCCGTTGA", "E-score": -0.194}
{"Oligonucleotide": "CCAATAGC", "E-score": -0.115}
{"Oligonucleotide": "GAGTAAGC", "E-score": -0.155}
{"Oligonucleotide": "AAGCTCAC", "E-score": -0.212}
{"Oligonucleotide": "CAGCAGTA", "E-score": -0.0193}
{"Oligonucleotide": "CGCGGCGC", "E-score": -0.228}
{"Oligonucleotide": "CCTACGTC", "E-score": -0.192}
{"data": "Sample 2", "target": "Histone acetyltransferase KAT6A, both winged helices, GST fusion (KAT6A, Homo sapiens, UniProt Q92794, residues 1-181)", "method": "protein binding microarray", "form": "double-stranded DNA, one strand shown", "matrix": "in vitro", "concentration": "not given", "notes": "8-mer, flanks averaged, mean of 2 arrays, mostly near background", "baseline": "not given", "direction": "higher = stronger binding", "Construct (chain)": "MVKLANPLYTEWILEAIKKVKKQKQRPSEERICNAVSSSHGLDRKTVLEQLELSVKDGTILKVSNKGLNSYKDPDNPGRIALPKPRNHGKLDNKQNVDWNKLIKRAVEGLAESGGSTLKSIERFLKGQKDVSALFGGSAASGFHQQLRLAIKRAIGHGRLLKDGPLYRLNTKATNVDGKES"}
{"Oligonucleotide": "GAACGCTC", "E-score": 0.0416}
{"Oligonucleotide": "ACGACATG", "E-score": -0.137}
{"Oligonucleotide": "GATGGGAC", "E-score": -0.0373}
{"Oligonucleotide": "TGGCGGAA", "E-score": 0.108}
{"Oligonucleotide": "GGCTTCAC", "E-score": 0.0772}
{"Oligonucleotide": "ACAGCCAT", "E-score": 0.0227}
{"Oligonucleotide": "TAATCAGA", "E-score": -0.0534}
{"Oligonucleotide": "CATCCCGG", "E-score": 0.202}
{"data": "Sample 3", "target": "RNA binding protein fox-1 homolog 2, RRM domain, GST-SBP tag (RBFOX2, Homo sapiens, UniProt O43251-10, residues 100-194)", "method": "RNA Bind-n-Seq", "form": "RNA", "matrix": "in vitro", "concentration": "365 nM", "notes": "natural RNA segment, single round, ends assumed", "baseline": "no-protein control", "direction": "higher = stronger binding", "Construct (chain)": "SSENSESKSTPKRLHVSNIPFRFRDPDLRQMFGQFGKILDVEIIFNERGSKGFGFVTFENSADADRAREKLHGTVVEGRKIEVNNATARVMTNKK"}
{"Oligonucleotide": "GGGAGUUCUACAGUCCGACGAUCCUGGGCCUCACCCUUAGACUGAGGCUGCACCCAUUCCUUAGAGGCUACUUCAGUUGCCUGACAAGAUCAAACUGGAUGAUAUAGCCAUCUGGCUUCUUCCAGAGACAUGGUGGAAUUCUCGGGUGCCAA", "RBNS enrichment (R)": 0.26}
{"Oligonucleotide": "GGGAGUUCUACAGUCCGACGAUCUGAAAGAAAAUGGCUGGAGGUGUGCUUUGUGUGAAAGGUGAGCAAUAAAGUAUCUGUUAAGUUCUCUUUUGGUUUGAGUUUUAUUUUAGCUACUGAAUUAUUCUGGACUCUGGAAUUCUCGGGUGCCAA", "RBNS enrichment (R)": 0.772}
{"Oligonucleotide": "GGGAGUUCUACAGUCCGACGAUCCUGAUGGCUGGCAUUUUUAAUAUAGGCAGUGAAAGUGACUUUAGAAGCAUGGGAUGAAAUAGAGGGAAGAAGAGUUUUUAUUUUCUGGCCUUUAAAAAGUGCCUAGUAGGUGGAAUUCUCGGGUGCCAA", "RBNS enrichment (R)": 1.54}
{"Oligonucleotide": "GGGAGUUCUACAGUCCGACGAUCAAGGAACCAUGUAAUGGUAGCAGUACCUCCCUAAAGCAUUUUGAGGUAGGGGAGGUAUCCAUUCAUAAAAUGAAUGUGGGUGAAGCCGCCCUAAGGAUUUUCCUUUAAUUUGGAAUUCUCGGGUGCCAA", "RBNS enrichment (R)": 2.63}
{"Oligonucleotide": "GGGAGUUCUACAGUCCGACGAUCUCCCCACCCCACACAUACCACUGCUUUGUCCAGGUGUUUGAUAGAAGAGCAGGGCAGGAAGACAGUUCAGGAGAUGGGUGUCAAGUUUUCUCUUGGUUGAUUUCAUUCCCUGGAAUUCUCGGGUGCCAA", "RBNS enrichment (R)": 0.58}
{"Oligonucleotide": "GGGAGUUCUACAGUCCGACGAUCCAAUCUGUUGUUGAGUUCCCCCUCUCUGCAUCAGUCUUCCCUGGAAAUGGAGGACCUGGUGCAGUACCUUUCCUCUGAGGCUUGGAUUCCCGUUCUUGGGUGUAAUGUUGUGGAAUUCUCGGGUGCCAA", "RBNS enrichment (R)": 0.915}
{"Oligonucleotide": "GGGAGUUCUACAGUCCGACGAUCGAAGCCCCUGGCAUUUGCUGGGGAAGGGACUGGCCUGGUACUUGCUGUUAGGGCAGGAAGGGGCAAAAGGAAGACUUGGGUAGUAAUCUGGGGGUUCAGAUGGGUAGCACUGGAAUUCUCGGGUGCCAA", "RBNS enrichment (R)": 0.572}
{"Oligonucleotide": "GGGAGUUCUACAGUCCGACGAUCAAUUAGAAGUGCCUCUGAGCCUUGUGAAGUGUGUGCGCAAGCCCCCAUGGAGAAAUGGAGACAUCUUGUCCCCACCUGAGGAGUGGACAUCUGCCUGAUUCUUGCCAACAUGGAAUUCUCGGGUGCCAA", "RBNS enrichment (R)": 0.488}
{"data": "Sample 4", "target": "Replicase polyprotein 1ab, polymerase (rep, Severe acute respiratory syndrome coronavirus 2, UniProt P0DTD1)", "observed": "enzyme activity", "action": "inhibitor", "concentration": "20 µM"}
{"SMILES": "CC1Sc2c(C(=O)O)c(=O)c3cc(F)c(N4CCNCC4)cc3n21 (stereo not drawn)", "inhibition [%]": -3.66}
{"SMILES": "C[C@@H]1CN(Cc2ncccn2)C[C@H]1c1nc2c(cnn2C2CCOCC2)c(=O)[nH]1", "inhibition [%]": -2.61}
{"SMILES": "CN[C@@H]1Cc2cccc3[nH]c(=O)n(c23)C1", "inhibition [%]": -0.58}
{"SMILES": "O[C@@H]1CO[C@H]2[C@@H]1OC[C@@H]2O", "inhibition [%]": -7.78}
{"SMILES": "COc1ccc(C(=O)NCc2cccnc2)cc1C(=O)NCc1cccnc1", "inhibition [%]": -3.05}
{"SMILES": "CC(C)(C=O)Cc1cc(C(C)(C)C)c(O)c(C(C)(C)C)c1", "inhibition [%]": -1.15}
{"SMILES": "CC(CN(C)C)C(C)(O)Cc1ccc(Cl)cc1 (stereo not drawn)", "inhibition [%]": -2.47}
{"SMILES": "Cc1cc(O)c(C(=O)N[C@@H](C(=O)N[C@@H]2C(=O)N3C(C(=O)O)=C(CSc4nnnn4C)CS[C@H]23)c2ccc(O)cc2)cn1", "inhibition [%]": 4.01}
{"SMILES": "Cc1ccc(-c2nn(C(C)(C)CNC(=O)c3ncccc3C)c3ncnc(N)c23)cc1", "inhibition [%]": -1.15}
{"SMILES": "CCCCCCCCNC(=O)/C(C#N)=C/c1cn(CCCN(C)C)c2ccccc12", "inhibition [%]": 7.18}
{"SMILES": "COC(=O)[C@@H](N)Cc1ccc(O)c(O)c1", "inhibition [%]": 2.12}
{"SMILES": "C[C@H](CCC(=O)O)[C@H]1CC[C@H]2[C@@H]3CC[C@@H]4C[C@H](O)CC[C@]4(C)[C@H]3C[C@H](O)[C@]12C", "inhibition [%]": -2.53}
{"SMILES": "Cc1cccc(Oc2nc3c(C)cccn3c(=O)c2/C=C(\\C#N)c2nc3ccccc3s2)c1", "inhibition [%]": 2.43}
{"SMILES": "O=c1[nH]c(CCl)nc2sc3c(c12)CCCC3", "inhibition [%]": -8.45}
{"SMILES": "CCCCNc1cc(C(=O)O)cc(S(N)(=O)=O)c1Oc1ccccc1", "inhibition [%]": 19.4}
{"SMILES": "C=C(C)[C@@H]1CC[C@]2(C(=O)O)CC[C@]3(C)[C@H](CC[C@@H]4[C@@]5(C)CC[C@H](OC(=O)CC(C)(C)C(=O)O)C(C)(C)[C@@H]5CC[C@]43C)[C@@H]12", "inhibition [%]": 1.92}
{"SMILES": "OB1OCc2cc(Cl)ccc21", "inhibition [%]": 1.45}
{"SMILES": "CCN[C@@H](C)Cc1cccc(C(F)(F)F)c1", "inhibition [%]": 5.9}
{"SMILES": "CC(C)(N)c1ncc(-c2ccc(OC(F)(F)F)cc2)[nH]1", "inhibition [%]": 16.1}
{"SMILES": "O=C1CC2(CCCC2)CC(=O)N1CCNCC1COc2ccccc2O1 (stereo not drawn)", "inhibition [%]": 1.66}
{"SMILES": "CCOc1ccc(Nc2nc(-c3c(C)nc4ccccn34)cs2)cc1", "inhibition [%]": -3.72}
{"SMILES": "Cc1oc2ccccc2c1CNC(=O)NCc1cccs1", "inhibition [%]": -5.86}
{"SMILES": "N#Cc1ccc2[nH]c(O)c(-c3ccc(CN4CCOCC4)cn3)c2c1", "inhibition [%]": 2.07}
{"SMILES": "COc1nc(C)cnc1NS(=O)(=O)c1cccnc1-c1ccc(-c2nnco2)cc1", "inhibition [%]": -1.88}
{"SMILES": "CSc1nc(-c2ccnc(NC(C)c3ccccc3)c2)c(-c2ccc(F)cc2)[nH]1 (stereo not drawn)", "inhibition [%]": 0.79}
{"data": "Sample 5", "cell line": "HEK-293T", "observed": "pseudovirus infection", "method": "FDA-approved drug library screen", "organism": "VSV pseudotyped with SARS-CoV-2 spike", "concentration": "10 µM", "time": "16 h", "baseline": "vehicle-treated"}
{"Structure (SMILES)": "Clc1ccc(C(c2ccccc2Cl)C(Cl)Cl)cc1 (stereo not drawn)", "GFP-positive cells": "72.8%"}
{"Structure (SMILES)": "O=C1OC2(c3ccc(O)cc3Oc3cc(O)ccc32)c2ccccc21", "GFP-positive cells": "93.1%"}
{"Structure (SMILES)": "Nc1nc2[nH]cc(CCc3ccc(C(=O)N[C@@H](CCC(=O)O)C(=O)O)cc3)c2c(=O)[nH]1", "GFP-positive cells": "80.9%"}
{"Structure (SMILES)": "C[C@@H]1C/C=C/C=C/C=C/C=C/[C@H](O[C@@H]2O[C@H](C)[C@@H](O)[C@H](N)[C@@H]2O)C[C@@H]2O[C@](O)(C[C@@H](O)C[C@H]3O[C@@H]3/C=C/C(=O)O1)C[C@H](O)[C@H]2C(=O)O", "GFP-positive cells": "86%"}
{"data": "Further values, each from its own experiment"}
{"SMILES": "CC1(C)C(/C=C/C=C/C=C/C=C2\\N(CCCCS(=O)(=O)[O-])c3ccc4ccccc4c3C2(C)C)=[N+](CCCCS(=O)(=O)[O-])c2ccc3ccccc3c21.[Na+]", "target": "Replicase polyprotein 1ab, main protease (rep, Severe acute respiratory syndrome coronavirus 2, UniProt P0DTD1)", "observed": "enzyme activity", "action": "inhibitor", "concentration": "20 µM", "notes": "hit confirmation, with DTT", "quantity": "inhibition", "result": "34%"}
